Measurements of several laboratories.
Compare with care: the assays were run in different laboratories.
Organism: Pseudomonas aeruginosa

| Compound | assay | test system | conditions | MIC |
| --- | --- | --- | --- | --- |
| CC(C)[C@H](NC(=O)CNC(=O)CNC(=O)[C@H](Cc1ccc(O)cc1)NC(=O)[C@H](CS)NC(=O)[C@@H](NC(=O)[C@H](Cc1c[nH]c2ccccc12)NC(=O)[C@H](Cc1ccccc1)NC(=O)[C@H](CS)NC(=O)[C@H](Cc1c[nH]c2ccccc12)NC(=O)[C@@H](N)CCCNC(=N)N)C(C)C)C(=O)N[C@@H](CS)C(=O)N[C@@H](Cc1ccc(O)cc1)C(=O)N[C@@H](CCCNC(=N)N)C(=O)N[C@@H](CCCNC(=N)N)C(=O)N[C@@H](CS)C(=O)N[C@@H](CCCNC(=N)N)C(=O)O | broth microdilution | ATCC 27853, Mueller-Hinton broth | 16 to 20 h, 37 °C | 4.39 µg/mL |
| CCCCCCCC(=O)N[C@@H](CCN)C(=O)N[C@H](C(=O)N[C@@H](CCN)C(=O)N[C@H]1CCNC(=O)[C@H]([C@@H](C)O)NC(=O)[C@H](CCN)NC(=O)[C@H](CCN)NC(=O)[C@H](Cc2ccccc2)NC(=O)[C@@H](CCC(C)C)NC(=O)[C@H](CCN)NC1=O)[C@@H](C)O | broth microdilution | colistin-resistant isolates | – | 0.25 to 2 µg/mL |
| CC[C@H](C)[C@H](NC(=O)[C@@H](CCCNC(=N)N)NC(=O)[C@H](CCCNC(=N)N)NC(=O)[C@@H]1CCCN1C(=O)[C@@H]1CCCN1C(=O)[C@H](CCCNC(=N)N)NC(=O)[C@@H]1CCCN1C(=O)[C@H](CCCNC(=N)N)NC(=O)[C@@H]1CCCN1C(=O)[C@H](CC(C)C)NC(=O)[C@H](Cc1ccc(O)cc1)NC(=O)[C@@H]1CCCN1C(=O)[C@@H]1CCCN1C(=O)[C@H](CCCCN)NC(=O)[C@H](CC(=O)O)NC(=O)[C@@H](N)C(C)C)C(=O)N[C@@H](Cc1cc(I)c(O)c(I)c1)C(=O)N[C@@H](CC(N)=O)C(=O)N[C@H](CCCNC(=N)N)C(N)=O | broth microdilution | DSM 1117 | 18 h, 37 °C, 25% MHB2 | > 128 µg/mL |
| CC[C@H](C)[C@H](NC(=O)[C@H](Cc1c[nH]c2ccccc12)NC(=O)[C@H](CCCCN)NC(=O)[C@H](CC(C)C)NC(=O)[C@@H](NC(=O)[C@@H](NC(=O)CNC(=O)[C@H](CCCCN)NC(=O)[C@H](Cc1c[nH]cn1)NC(=O)[C@H](CCCCN)NC(=O)[C@H](Cc1c[nH]c2ccccc12)NC(=O)[C@H](C)NC(=O)[C@H](CC(C)C)NC(=O)[C@H](CO)NC(=O)[C@@H](NC(=O)[C@H](Cc1ccc(O)cc1)NC(=O)[C@H](CCCCN)NC(=O)[C@H](CCC(N)=O)NC(=O)CNC(=O)[C@H](CCCCN)NC(=O)[C@@H](NC(=O)[C@H](C)NC(=O)[C@H](CC(C)C)NC(=O)[C@H](Cc1ccccc1)NC(=O)[C@H](CCC(N)=O)NC(=O)[C@@H](NC(=O)[C@H](CC(C)C)NC(=O)[C@H](CCCCN)NC(=O)[C@H](CCSC)NC(=O)[C@H](Cc1ccccc1)NC(=O)[C@H](C)NC(=O)[C@H](C)NC(=O)[C@@H](N)CCSC)[C@@H](C)CC)[C@@H](C)O)C(C)C)[C@@H](C)O)[C@@H](C)CC)C(=O)N[C@@H](CC(N)=O)C(N)=O | broth microdilution | ATCC 27853 | 24 h, 37 °C | 12 µg/mL |
| CC(=O)N[C@H](Cc1ccc(Br)cc1)C(=O)N[C@@H](CCN)C(=O)N[C@H](C(=O)N[C@@H](CCN)C(=O)N[C@H]1CCNC(=O)[C@H]([C@@H](C)O)NC(=O)[C@H](CCN)NC(=O)[C@H](CCN)NC(=O)[C@H](CC(C)C)NC(=O)[C@@H](Cc2ccccc2)NC(=O)[C@H](CCN)NC1=O)[C@@H](C)O | broth microdilution | colistin-resistant isolates | – | 16 to 32 µg/mL |
| CN[C@H](CC(C)C)C(=O)N[C@H]1C(=O)N[C@@H](CC(N)=O)C(=O)N[C@H]2C(=O)N[C@H]3C(=O)N[C@H](C(=O)N[C@H](C(=O)NCC(N)=O)c4cc(O)cc(O)c4-c4cc3ccc4O)[C@H](O)c3ccc(c(Cl)c3)Oc3cc2cc(c3O[C@@H]2O[C@H](CO)[C@@H](O)[C@H](O)[C@H]2O[C@H]2C[C@](C)(NCc3ccc(OCc4cn(CC(=O)N[C@H](C(=O)N[C@@H](CCN)C(=O)N[C@H]5CCNC(=O)[C@H]([C@@H](C)O)NC(=O)[C@H](CCN)NC(=O)[C@H](CCN)NC(=O)[C@H](CC(C)C)NC(=O)[C@@H](CC(C)C)NC(=O)[C@H](CCN)NC5=O)[C@@H](C)O)nn4)c(OC)c3)[C@H](O)[C@H](C)O2)Oc2ccc(cc2Cl)[C@H]1O | broth microdilution | ATCC 17978, cation-adjusted Mueller-Hinton broth | – | 48 µM |
| CC(C)C[C@@H](NC(=O)[C@@H](CC(C)C)NC(=O)[C@@H](CCCCN)NC(=O)[C@@H](CCCCNC(=O)[C@@H](CC(C)C)NC(=O)[C@@H](CC(C)C)NC(=O)[C@@H](CCCCNC(=O)[C@@H](CC(C)C)NC(=O)[C@@H](CCCCN)NC(=O)[C@@H](CCCCNC(=O)[C@@H](CC(C)C)NC(=O)[C@H](N)CCCCN)NC(=O)[C@@H](CC(C)C)NC(=O)[C@H](N)CCCCN)NC(=O)[C@@H](CC(C)C)NC(=O)[C@@H](CCCCN)NC(=O)[C@@H](CCCCNC(=O)[C@@H](CC(C)C)NC(=O)[C@H](N)CCCCN)NC(=O)[C@@H](CC(C)C)NC(=O)[C@H](N)CCCCN)NC(=O)[C@@H](CC(C)C)NC(=O)[C@@H](CC(C)C)NC(=O)[C@@H](CCCCNC(=O)[C@@H](CC(C)C)NC(=O)[C@@H](CCCCN)NC(=O)[C@@H](CCCCNC(=O)[C@@H](CC(C)C)NC(=O)[C@H](N)CCCCN)NC(=O)[C@@H](CC(C)C)NC(=O)[C@H](N)CCCCN)NC(=O)[C@@H](CC(C)C)NC(=O)[C@@H](CCCCN)NC(=O)[C@@H](CCCCNC(=O)[C@@H](CC(C)C)NC(=O)[C@H](N)CCCCN)NC(=O)[C@@H](CC(C)C)NC(=O)[C@H](N)CCCCN)C(N)=O | broth microdilution | ZEM9A, multidrug-resistant clinical isolate | 20 h, 37 °C | 8 µg/mL |
| CC[C@H](C)[C@H](N)C(=O)N[C@@H](CCCNC(=N)N)C(=O)N[C@H](C(=O)N[C@@H](Cc1c[nH]c2ccccc12)C(=O)N[C@@H](Cc1ccccc1)C(=O)N[C@H](C(=O)N[C@@H](CCCCN)C(=O)N[C@H](C(=O)N[C@@H](CCCNC(=N)N)C(=O)N[C@@H](CCCCN)C(=O)N[C@@H](CCSC)C(=O)N[C@@H](CCCCN)C(=O)N[C@@H](C)C(=O)N[C@H](C(=O)N[C@@H](Cc1ccc(O)cc1)C(=O)N[C@@H](Cc1c[nH]cn1)C(=O)N[C@H](C(N)=O)[C@@H](C)O)[C@@H](C)CC)C(C)C)[C@@H](C)CC)C(C)C | broth dilution | ATCC 27853 | – | > 100 µM |
| CC(C)C[C@@H]1NC(=O)[C@@H](CC(C)C)NC(=O)[C@H](CCN)NC(=O)[C@@H](NC(=O)[C@H](CCN)NC(=O)[C@@H](NC(=O)CCCCN=[N+]=[N-])[C@@H](C)O)CCNC(=O)[C@H]([C@@H](C)O)NC(=O)[C@H](CCN)NC(=O)[C@H](CCN)NC1=O | broth microdilution | ATCC 35218, cation-adjusted Mueller-Hinton broth | – | 8 µM |
| CC(=O)N[C@@H](CC(C)C)C(=O)N[C@H]1CSSC[C@@H](C(=O)N2CCC[C@H]2C(N)=O)NC(=O)[C@H]([C@@H](C)O)NC(=O)[C@H](C(C)C)NC(=O)[C@H]([C@@H](C)O)NC(=O)CNC(=O)[C@H](CC(C)C)NC(=O)[C@H](Cc2ccccc2)NC(=O)[C@H](Cc2ccc(O)cc2)NC(=O)[C@H](CC(C)C)NC(=O)[C@H](CCCCN)NC(=O)[C@H](Cc2ccccc2)NC(=O)[C@H](CCCNC(=N)N)NC(=O)[C@H](CCC(N)=O)NC(=O)[C@H](CC(C)C)NC(=O)[C@H](CCCCN)NC(=O)[C@@H]2CCCN2C(=O)[C@H](CCCCN)NC(=O)[C@H](C(C)C)NC(=O)[C@H](CC(N)=O)NC(=O)[C@H](Cc2ccc(O)cc2)NC(=O)[C@H]([C@@H](C)O)NC1=O | broth dilution | CGMCC strain | 24 h | 20 to 40 µM |
